Measurements gathered from unrelated publications.
Lines come from different studies, so protocols differ. ± marks the error that the study gave.
Sequence of UniProt P08684 (whole entry, looked up): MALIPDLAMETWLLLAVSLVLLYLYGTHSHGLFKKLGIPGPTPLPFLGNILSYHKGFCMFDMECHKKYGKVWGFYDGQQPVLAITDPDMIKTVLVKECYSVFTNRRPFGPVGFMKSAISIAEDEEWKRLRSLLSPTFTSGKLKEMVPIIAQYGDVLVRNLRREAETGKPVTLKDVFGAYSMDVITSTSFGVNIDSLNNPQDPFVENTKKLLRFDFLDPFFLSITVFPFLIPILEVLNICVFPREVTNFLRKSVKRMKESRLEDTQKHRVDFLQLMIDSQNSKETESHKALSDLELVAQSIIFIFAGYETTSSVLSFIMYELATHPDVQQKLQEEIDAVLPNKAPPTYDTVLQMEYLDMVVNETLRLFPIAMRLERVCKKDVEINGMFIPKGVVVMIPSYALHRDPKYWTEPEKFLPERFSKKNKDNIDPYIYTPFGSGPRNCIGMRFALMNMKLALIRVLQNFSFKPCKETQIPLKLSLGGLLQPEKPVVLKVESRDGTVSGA

| SMILES | target or system | test | system | setting | scale | quantity | value |
| --- | --- | --- | --- | --- | --- | --- | --- |
| O=C(/C=C/c1cccnc1)NCCCCC1CCN(C(=O)c2ccccc2)CC1 | rat cytochrome P450 | inhibitor | rat liver microsomes | 10 µM, 15 min, pH 7.4, together with: aminopyrine 2 mM |  | aminopyrine N-demethylase activity | 5.25 nmol/min/mg |
| Cc1noc(C)c1Cn1cc(N2C(=O)CN(Cc3cccc(O)c3)C2=O)cn1 | human blood lymphocytes |  |  | 1100 µg/mL, 3 h, with 5% S9 |  | aberrant cells without gaps | 3.9% |
| CC[C@H](CO)N(CCN(N=O)[C@H](CC)CO)N=O | Salmonella typhimurium | mutagenicity, Ames plate incorporation | TA1535 | 1500 µg/plate, without S9, methanol |  | revertant colonies per plate | 32.7 ± 6 |
| O=C(Nc1nc2cccc(-c3ccc(CN4CCS(=O)(=O)CC4)cc3)n2n1)C1CC1 |  | item: abdominal discomfort | rheumatoid arthritis patients | oral, 75 mg once daily, 4 weeks, any relatedness |  | patients with adverse event | 0% |
| COc1cc2c(c(O)c1OC)C(=O)c1c(cc(C)c(O)c1OC)C2=O | HK-2 co-cultured with HepaRG | MTT |  | 33.33 µM, 24 h | baseline: untreated control | cell viability | 71.2 ± 7.31% |
| Cc1cc(N)c2c(OCC(C)(C)C(=O)NC(C)C)cccc2n1 | Salmonella typhimurium | reverse mutation, plate incorporation | TA100 | 1 µg/plate, without S9 |  | mean revertant colonies | 59 colonies/plate |
| O=C(O)c1cc(O)c2c(c1)C(=O)c1cccc(O[C@@H]3O[C@H](CO)[C@@H](O)[C@H](O)[C@H]3O)c1C2=O | HK-2 co-cultured with HepaRG | MTT |  | 266.67 µM, 48 h | baseline: untreated control | cell viability | 9.96 ± 3.33% |
| Cl.[2H]C([2H])([2H])CC(=O)c1cnc(NC(=O)C2CC2)cc1Nc1cccc(-c2ncn(C([2H])([2H])[2H])n2)c1OC |  | geometric mean | human | oral, 10 mg once daily, day 7, fasted, liquid, multiple dose |  | Cmax | 117 ng/mL |
| C[C@H]1CN(C2COC2)CCN1c1ccc(Nc2cc(-c3ccnc(N4CCn5c(cc6c5CC(C)(C)C6)C4=O)c3CO)cn(C)c2=O)nc1 | human CYP |  | human liver microsomes | 1 µM, 60 min, pH 7.4, together with: 1-aminobenzotriazole 1000 µM, NADPH | baseline: 0 min | remaining compound | 94.9 ± 11.2% |
| COc1c(O)c(C)cc2c1C(=O)c1c(ccc(O)c1O)C2=O | HK-2 co-cultured with HepaRG | MTT |  | 266.67 µM, 48 h | baseline: untreated control | viability | 79.3 ± 19.7% |
| CCCCc1oc2ccccc2c1C(=O)c1cc(I)c(OCCN(CC)CC)c(I)c1 | H9 human embryonic stem cell aggregates | qRT-PCR developmental regulator genes | 3D culture | 2 µM, day 5 | direction not given | ALERT score | 6 |
| CC(=O)c1ccco1 | THP-1 | pyroptotic LDH release |  | 2 µM, 40 min, together with: LPS then nigericin |  | inhibition | 7.87% |
| CC(=O)c1c(C)cc2cc(O)cc(O[C@@H]3O[C@H](CO)[C@@H](O)[C@H](O)[C@H]3O)c2c1O | HK-2 co-cultured with HepaRG | MTT |  | 133.33 µM, 24 h | baseline: untreated control | cell viability | 100 ± 10.9% |
| CC[C@H]1[C@@H](O)[C@@H]2[C@H](CC[C@]3(C)[C@@H]([C@H](C)CCNC(=O)NS(=O)(=O)c4ccc(C(C)(C)C)cc4)CC[C@@H]23)[C@@]2(C)CC[C@@H](O)C[C@@H]12 | Cytochrome P450 3A4 (CYP3A4, Homo sapiens, UniProt P08684) | substrate | human, plasma | 10 mg, alone, study day 1 |  | elimination rate constant mean | 0.0674 h⁻¹ |
| C[C@@](Cc1ccc(O)c(O)c1)(NN)C(=O)O | THP-1 | pyroptotic LDH release |  | 2 µM, 40 min, together with: LPS then nigericin |  | inhibition | 31.9% |

A few entries again:
| SMILES | target or system | test | system | setting | scale | quantity | value |
| --- | --- | --- | --- | --- | --- | --- | --- |
| C[C@@](Cc1ccc(O)c(O)c1)(NN)C(=O)O | THP-1 | pyroptotic LDH release |  | 2 µM, 40 min, together with: LPS then nigericin |  | inhibition | 31.9% |
| Cc1cc(N)c2c(OCC(C)(C)C(=O)NC(C)C)cccc2n1 | Salmonella typhimurium | reverse mutation, plate incorporation | TA100 | 1 µg/plate, without S9 |  | mean revertant colonies | 59 colonies/plate |
